{"data": "Measurements from different studies", "note": "Parts stem from different laboratories: compare values within a part only. Positions count from the first letter of the parent shown."}
{"data": "Sample 1", "target": "RNA binding protein fox-1 homolog 2, RRM domain, GST-SBP tag (RBFOX2, Homo sapiens, UniProt O43251-10, residues 100-194)", "method": "RNA Bind-n-Seq", "molecule type": "RNA", "medium": "in vitro", "tested at": "365 nM", "setting": "natural RNA segment, single round, ends assumed", "reference": "no-protein control", "reading": "higher = stronger binding", "all sequences stand within": "GGGAGUUCUACAGUCCGACGAUC … UGGAAUUCUCGGGUGCCAA", "Construct (chain)": "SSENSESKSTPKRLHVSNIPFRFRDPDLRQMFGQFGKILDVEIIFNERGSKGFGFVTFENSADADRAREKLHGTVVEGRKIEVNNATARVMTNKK"}
{"Oligonucleotide": "AGGUGGAGUGGAGUGUGGCAUGCAGGCUCUGUGGGGGCGCCAGUGCUCAGUUAGUUGUUGGUUAUUUAAAGCACACUCAGUUUGCACUCAUUUCCCCUAAACAACUGGCA", "RBNS enrichment (R)": 5.79}
{"Oligonucleotide": "GGAUAGGAGUGGCUCCAUCUAUCCUUGUGGUGAAAGAGUCCAGGAGCUCCUUUAGAGAUUGUCAAGUCCUGAGCGAUGAGCUGCCCUUAAUCCUCAGAAGCCUUACAAAA", "RBNS enrichment (R)": 0.314}
{"Oligonucleotide": "UCAGUGAUUCGCUUUUGGUAUUUGUUUGUAGCUUUCCUGGAAGUCAAAUAAAUGUUUCCCCCACUCCUUGCCCUUCCACUUGUCUUUUCUCCGAGGGGUCUGCCUCUCCC", "RBNS enrichment (R)": 0.538}
{"Oligonucleotide": "ACUCAUUCUCUUACCUAGCGAACAAGAUCUUUUCAGAGUGGUGUUUCUAAAAGAGCAUGUACAAAAGUGGCCUGUGGACAUUUAGGCCUGGGUGAUGCAUUUGCUCUUCC", "RBNS enrichment (R)": 0.639}
{"Oligonucleotide": "UCCACCUGCUGGGGCACCAUUCUUAGUAUACAGAGGUGGCCUUACACACAUCUUGCAUGGAUGGCAGCAUUGUUCUGAAGGGGUUUGCAGAAAAAAAAGAUUUUCUUUAC", "RBNS enrichment (R)": 5.98}
{"Oligonucleotide": "ACCCCACUAUGCCGCAGGCCGCCCUACCCACCUUCAGGCAGCCUAUGGGACGCAGGGCCCCAUCUGUCCCUCGGUCGCCGUGUGGCCAGAGUGGGUCCGUCGUCCCCAAC", "RBNS enrichment (R)": 0.298}
{"Oligonucleotide": "GUUGCAGAUGGGUGAUAUAUAAUGGUAAUAGAAUAGCACAGCCAGACUUGCUUCCUGCAUGGUAGGGAGAGACACAAAAGAUGGGAAACUGCUUUUCCACAAGGAAUCUC", "RBNS enrichment (R)": 3.37}
{"Oligonucleotide": "CUAAGAAGACCACUAGUCCCAUGAAGUCUCACCUUGUUGACUUCCACCAGAACAAAACCUGUUAAUUCAGCUUGACUUCUCAUAUGUGUUCUGUGUUCAAGCUCCUGUGG", "RBNS enrichment (R)": 0.38}
{"data": "Sample 2", "Molecule": "PhoQ, residues 284 288 289 292 302 303 SASVAL", "method": "Sort-seq", "measured": "YFP reporter", "medium": "E. coli", "setting": "PhoQ-PhoP variant library", "added": "10 µM Mg2+", "reference": "high Mg2+ state", "reading": "higher = stronger signaling"}
{"target": "PhoP, residues 12 14 15 18 19 GMGLL (Escherichia coli, UniProt P23836)", "fold induction": 1.05}
{"target": "PhoP, residues 12 14 15 18 19 QQAYL (Escherichia coli, UniProt P23836)", "fold induction": 12.4}
{"target": "PhoP, residues 12 14 15 18 19 LFHKL (Escherichia coli, UniProt P23836)", "fold induction": 14.4}
{"data": "Sample 3", "target": "Histone acetyltransferase KAT6A, winged helix 1, GST fusion (KAT6A, Homo sapiens, UniProt Q92794, residues 1-85)", "method": "protein binding microarray", "molecule type": "double-stranded DNA, one strand shown", "medium": "in vitro", "tested at": "not given", "setting": "8-mer, flanks averaged, mean of 2 arrays, mostly near background", "reference": "not given", "reading": "higher = stronger binding", "Construct (chain)": "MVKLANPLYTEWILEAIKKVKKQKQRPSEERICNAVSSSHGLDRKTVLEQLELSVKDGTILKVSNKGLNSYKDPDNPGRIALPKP"}
{"Oligonucleotide": "ACTTTCAC", "E-score": -0.0972}
{"Oligonucleotide": "AATGAACA", "E-score": -0.215}
{"Oligonucleotide": "ATGACGCG", "E-score": 0.286}
{"Oligonucleotide": "CTGCAGGC", "E-score": -0.174}
{"Oligonucleotide": "CCCCGGGG", "E-score": 0.374}
{"Oligonucleotide": "TCAACAGA", "E-score": -0.0867}
{"Oligonucleotide": "CGGAACGA", "E-score": -0.0298}
{"Oligonucleotide": "CAGTATCC", "E-score": -0.0337}
{"Oligonucleotide": "CGCTAGAA", "E-score": 0.0601}
{"Oligonucleotide": "CCCCAGCA", "E-score": -0.0277}
{"Oligonucleotide": "GAATCGCA", "E-score": -0.0135}
{"Oligonucleotide": "CCTGCGAG", "E-score": 0.0633}
{"Oligonucleotide": "CTTCGATC", "E-score": -0.0562}
{"Oligonucleotide": "GAGTCATC", "E-score": -0.04}
{"data": "Sample 4", "target": "CCNA2, cyclin fold, Cln2 fusion (human)", "method": "yeast growth competition, sequencing", "medium": "yeast", "setting": "strong parent motif", "reference": "not given", "reading": "higher = stronger binding", "starting sequence": "PKN2 docking peptide (human); VSAVQKLDFSDTM; partner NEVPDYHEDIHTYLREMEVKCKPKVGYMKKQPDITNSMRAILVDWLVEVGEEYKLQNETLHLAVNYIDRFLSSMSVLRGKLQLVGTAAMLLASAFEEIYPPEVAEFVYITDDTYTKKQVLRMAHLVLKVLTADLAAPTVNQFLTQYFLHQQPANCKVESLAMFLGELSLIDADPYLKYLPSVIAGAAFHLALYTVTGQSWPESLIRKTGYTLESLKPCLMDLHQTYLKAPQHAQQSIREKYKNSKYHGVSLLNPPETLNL"}
{"Substitution": "L7H", "normalised enrichment score": 0.162}
{"Substitution": "M13A", "normalised enrichment score": 2.31}
{"Substitution": "M13R", "normalised enrichment score": 2.43}
{"Substitution": "M13L", "normalised enrichment score": 2.02}
{"Substitution": "K6H", "normalised enrichment score": 1.54}
{"Substitution": "K6W", "normalised enrichment score": 0.366}
{"Substitution": "T12Q", "normalised enrichment score": 1.34}
{"Substitution": "T12L", "normalised enrichment score": 2.4}
{"Substitution": "A3D", "normalised enrichment score": -0.852}
{"Substitution": "S10Q", "normalised enrichment score": 0.571}
{"Substitution": "V1C", "normalised enrichment score": 2.47}
{"Substitution": "A3Q", "normalised enrichment score": -0.513}
{"Substitution": "D11E", "normalised enrichment score": 1.85}
{"note": "Repeated from above (sample 1):"}
{"Oligonucleotide": "GGAUAGGAGUGGCUCCAUCUAUCCUUGUGGUGAAAGAGUCCAGGAGCUCCUUUAGAGAUUGUCAAGUCCUGAGCGAUGAGCUGCCCUUAAUCCUCAGAAGCCUUACAAAA", "RBNS enrichment (R)": 0.314}
{"Oligonucleotide": "UCAGUGAUUCGCUUUUGGUAUUUGUUUGUAGCUUUCCUGGAAGUCAAAUAAAUGUUUCCCCCACUCCUUGCCCUUCCACUUGUCUUUUCUCCGAGGGGUCUGCCUCUCCC", "RBNS enrichment (R)": 0.538}
{"Oligonucleotide": "GUUGCAGAUGGGUGAUAUAUAAUGGUAAUAGAAUAGCACAGCCAGACUUGCUUCCUGCAUGGUAGGGAGAGACACAAAAGAUGGGAAACUGCUUUUCCACAAGGAAUCUC", "RBNS enrichment (R)": 3.37}
